Assay results of several laboratories.
Parts stem from different laboratories: compare values within a part only. Substitutions count along the parent as printed.

Sample 1 — technique: RNA Bind-n-Seq; molecule type: RNA; matrix: in vitro; concentration: 200 nM; setting: whole 134-nt RNA, ends assumed; with: 150 mM KCl; relative to: input library; direction: higher = stronger binding
Target: Ras GTPase-activating protein-binding protein 1, full length (G3BP1, Homo sapiens, UniProt Q13283)
UniProt Q13283, sequence (whole entry, looked up): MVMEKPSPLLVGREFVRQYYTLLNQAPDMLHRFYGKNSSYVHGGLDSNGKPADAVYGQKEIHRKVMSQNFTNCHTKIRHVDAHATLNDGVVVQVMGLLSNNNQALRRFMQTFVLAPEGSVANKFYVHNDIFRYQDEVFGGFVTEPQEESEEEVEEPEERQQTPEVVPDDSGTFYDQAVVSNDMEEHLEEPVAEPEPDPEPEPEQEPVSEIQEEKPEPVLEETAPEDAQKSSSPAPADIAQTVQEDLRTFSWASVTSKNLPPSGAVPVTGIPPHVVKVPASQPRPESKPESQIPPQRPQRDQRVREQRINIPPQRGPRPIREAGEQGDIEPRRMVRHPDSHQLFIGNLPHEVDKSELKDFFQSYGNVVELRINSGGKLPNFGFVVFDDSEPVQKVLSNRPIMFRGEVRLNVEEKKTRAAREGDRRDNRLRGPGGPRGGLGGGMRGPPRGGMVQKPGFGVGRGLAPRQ
With `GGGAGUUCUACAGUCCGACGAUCCAAGUCCUGUGCUACACAUCGUAUGUACCGAAUCGGGCCCGGGCCCGGGGCCCGGAAAGUAUUAUGUUACGCCGUUCGGAUCUGCACUUCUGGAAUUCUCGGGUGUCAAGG` the log2 enrichment was -0.472.
`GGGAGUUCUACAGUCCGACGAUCAAGUCCUGUGCUACACAUCGUAUGUACCGAAUCGGCCCCGGCCCCGGGCCCCGGGGAAAGUAUUAUGUUACGCCGUUCGGAUCUGCACUUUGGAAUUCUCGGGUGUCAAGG` gave a log2 enrichment of -0.724.
`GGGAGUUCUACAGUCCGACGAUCAGUCCUGUGCUACACAUCGUAUGUACCGAAUCGGGUUUUUUUGGGUGGGUUUUUGGGAAAGUAUUAUGUUACGCCGUUCGGAUCUGCACUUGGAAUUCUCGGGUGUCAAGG` gave a log2 enrichment of -0.0105.
With `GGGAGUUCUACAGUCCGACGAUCUGGGCAUUUUGGUGGAGACGAUGAGCACCAACGACACGAUCGUCAGUGGCACGCUGCCCCAGCGCAUGGCGUCCUGCCUGGAGGUGCUGGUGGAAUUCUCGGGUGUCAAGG` the log2 enrichment was -1.43.
`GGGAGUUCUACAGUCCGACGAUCUGGGAGGUGGAUUUUGUUUAUUUCUUUAGCUCAUUUCCAGGGGUGGGAAUUUUUUUUUAAUAUGUGUCAUGAAUAAAGUUGUUUUUGAAAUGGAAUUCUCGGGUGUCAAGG` gave a log2 enrichment of 0.219.
The log2 enrichment of `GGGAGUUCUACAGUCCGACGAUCGUCCUGUGCUACACAUCGUAUGUACCGAAUCAAACCCCCCCAAACCCAAAUUUUUAAAAAAGUAUUAUGUUACGCCGUUCGGAUCUGCACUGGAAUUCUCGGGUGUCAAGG` is reported as -0.114.

Sample 2 — technique: protein-binding microarray; molecule type: double-stranded DNA, one strand shown; matrix: in vitro; concentration: 250 nM; setting: 60-bp whole probe; with: salmon DNA 0.4 mg/ml; relative to: random background probes; direction: higher = stronger binding; all sequences stand within: GCCTAGCAC … GTCTTGATTCGCTTGACGCTGCTG
Target: Interferon regulatory factor 7, full length, phosphomimetic (IRF7, Homo sapiens, UniProt Q92985, residues 1-503, S101K/S471D/S472D/S475D/S476D/S477D/S483D/S484D/S487D)
UniProt Q92985, sequence (whole entry, unmodified, looked up): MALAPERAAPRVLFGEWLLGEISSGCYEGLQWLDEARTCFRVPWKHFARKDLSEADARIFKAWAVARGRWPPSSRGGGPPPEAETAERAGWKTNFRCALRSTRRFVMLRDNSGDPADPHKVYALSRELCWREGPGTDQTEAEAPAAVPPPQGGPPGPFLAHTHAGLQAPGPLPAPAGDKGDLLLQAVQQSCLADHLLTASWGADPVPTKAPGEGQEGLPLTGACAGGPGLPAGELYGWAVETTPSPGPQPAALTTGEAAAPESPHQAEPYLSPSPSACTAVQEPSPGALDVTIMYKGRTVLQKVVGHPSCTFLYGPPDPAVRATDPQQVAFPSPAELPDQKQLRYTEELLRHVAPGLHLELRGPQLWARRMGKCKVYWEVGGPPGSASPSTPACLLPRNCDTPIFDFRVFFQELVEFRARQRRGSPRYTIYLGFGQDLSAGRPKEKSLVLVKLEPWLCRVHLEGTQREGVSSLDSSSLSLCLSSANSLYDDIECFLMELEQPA
`TTAGAATTGAGTCTCGATTAGTGCTAG` has a log fluorescence of 1.41 z-score.
`GACGGTATCGACAATGGGGACGTGCTA` gave a log fluorescence of -0.332 z-score.
With `CTAGATTTCAGACTGGATTAGTGCTAG` the log fluorescence was 0.238 z-score.
`TCGCCTTTTTTGTTGTTTTTGTGCTAG` has a log fluorescence of 1.38 z-score.
The log fluorescence of `TTAGGTTTCGACTATCGGTTGGTGCTA` is reported as 5.01 z-score.
With `TTAGATTTCAGTCTCGAGTAGTGCTAG` the log fluorescence was 0.749 z-score.

Sample 3 — target: CCNF, cyclin fold, Cln2 fusion (human); technique: yeast growth competition, sequencing; matrix: yeast; setting: strong parent motif; relative to: not given; direction: higher = stronger binding
Starting sequence: INSM1 docking peptide (human); PKAIRKLHFEDEV; partner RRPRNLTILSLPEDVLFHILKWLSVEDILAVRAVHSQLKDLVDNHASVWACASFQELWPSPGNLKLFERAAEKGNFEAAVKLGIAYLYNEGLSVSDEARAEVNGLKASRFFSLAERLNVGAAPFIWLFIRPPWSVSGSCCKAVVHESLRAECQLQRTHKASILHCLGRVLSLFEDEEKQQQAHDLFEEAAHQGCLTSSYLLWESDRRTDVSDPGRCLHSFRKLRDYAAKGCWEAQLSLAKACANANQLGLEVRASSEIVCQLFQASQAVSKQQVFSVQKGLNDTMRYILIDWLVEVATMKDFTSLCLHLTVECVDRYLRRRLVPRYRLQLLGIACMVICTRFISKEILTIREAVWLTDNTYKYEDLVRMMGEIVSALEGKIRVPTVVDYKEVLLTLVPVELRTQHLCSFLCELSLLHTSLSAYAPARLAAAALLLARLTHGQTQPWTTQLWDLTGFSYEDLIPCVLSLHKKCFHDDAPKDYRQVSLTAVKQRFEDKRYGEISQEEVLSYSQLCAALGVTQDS
`PSAIRKLHFEDEV [K2S]` — result for “normalised enrichment score”: 7.33.
`PKAIRRLHFEDEV [K6R]` — result for “normalised enrichment score”: 7.45.
`PKAIRKLHFEMEV [D11M]` — result for “normalised enrichment score”: 7.56.
`PKAIRMLHFEDEV [K6M]`: “normalised enrichment score” 6.83.
For `PKAIRKLHFIDEV [E10I]`, “normalised enrichment score” read 7.26.

Further values, each from its own experiment
With `PhoQ, residues 284 288 289 292 302 303 SNGLAW` the fold induction was 7.64 (PhoP, residues 12 14 15 18 19 QWHVF (Escherichia coli, UniProt P23836); Sort-seq, measured: YFP reporter; E. coli; PhoQ-PhoP variant library, with: 10 µM Mg2+; relative to: high Mg2+ state, higher = stronger signaling).

For quick reference, copied from above (sample 2):
`TTAGAATTGAGTCTCGATTAGTGCTAG` has a log fluorescence of 1.41 z-score.
`GACGGTATCGACAATGGGGACGTGCTA` gave a log fluorescence of -0.332 z-score.
